Published values gathered from unrelated publications.
Every numbered part comes from another study and shows a few of its results, in no order. Substitutions count along the parent as printed.

Series 1
Target: RING finger protein unkempt homolog, zinc fingers 1-6, SBP tag (UNK, Homo sapiens, UniProt Q9C0B0, residues 30-357)
Sequence of UniProt Q9C0B0 (30-357, looked up): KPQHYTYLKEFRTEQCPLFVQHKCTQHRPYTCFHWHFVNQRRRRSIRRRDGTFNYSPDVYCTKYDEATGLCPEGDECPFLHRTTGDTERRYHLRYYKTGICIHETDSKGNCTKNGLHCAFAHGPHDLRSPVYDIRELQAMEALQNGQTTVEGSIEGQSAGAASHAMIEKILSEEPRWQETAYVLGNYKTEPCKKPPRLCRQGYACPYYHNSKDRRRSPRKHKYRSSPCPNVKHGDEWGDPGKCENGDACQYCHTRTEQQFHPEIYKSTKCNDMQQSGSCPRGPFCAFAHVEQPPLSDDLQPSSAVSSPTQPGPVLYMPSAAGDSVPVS
Technique: RNA Bind-n-Seq
Molecule type: RNA
Matrix: in vitro
Concentration: 100 nM
Setting: RNA with constant flanks, vertebrate orthologous sites, ends assumed
Baseline: input RNA pool
Direction: higher = stronger binding
`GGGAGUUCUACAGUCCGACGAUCUCUGCCGUCCCCGCGAGCCGCGCGGCGCGGUCCCGUCUUCAGCGUCCUCUCUUUCCUGUCCUCGGGGUGGGGGUGGGGUGUGGCUCACGGCGCAGCGGCGCGAGCUCGUGUGGUUGGUUCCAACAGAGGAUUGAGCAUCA` has a bound/input enrichment of 0.387 ratio.
`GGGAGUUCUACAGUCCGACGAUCGUUGGGUCAUGACCCCUAUAGGUUAGGUCAUGAUGCUUACAGGUUAGGGCAGGACCCGUAUAGAUUAGGCCAUGAUCCCUAUAGACUAACUCCUGAUCCCUAUAGGAUGUCACCUAGACCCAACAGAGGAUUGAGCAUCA` has a bound/input enrichment of 0.756 ratio.
`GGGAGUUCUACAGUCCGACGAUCAAGCCAUUUUUUCCACAUUUUCUGUAAAUAAUGGAUAAUCAUUUUUAAAAAAUUUAUUUUUAGUGCUGUUUUAACAAUGUGGAUAGAUCAUAAAUGUACUUGCUGAAUUCAAUCAUUUUUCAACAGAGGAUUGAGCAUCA` has a bound/input enrichment of 0.147 ratio.
With `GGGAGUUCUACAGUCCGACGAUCUUACUGCACUGCAAAAGCCCUGCCUCUCACGCAGCACAGUGAGGACAAACUGGUCAGCAUCAGGGCAUCACCUGCUCCUACAUUUCCAGUGGUUGUGUCAGCCUUGAACUAGUCUAGCUGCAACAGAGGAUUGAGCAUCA` the bound/input enrichment was 0.292 ratio.
`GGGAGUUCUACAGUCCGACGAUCCAUUGUAUCCUGCUGUAUAAUAAACAUUCUUAUGCAUUUAUCAAAUGUUGAUAAAAUGUUAGCCCUUAACCACUUUUAUAUGUUUUAAAUUUUUAAAUUCAAGUGUACCUUCCAUAACAUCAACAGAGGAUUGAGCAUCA` has a bound/input enrichment of 1.21 ratio.
The bound/input enrichment of `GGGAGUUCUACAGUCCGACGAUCUUGCCUACAAUAAUGAAAACCUACAGGAAUUUUUUUAUUUUUCAUUUUCUUCUUAGGCAUAGUUAGUCUUUUUCCCCCAGGCAGAUGAUUCUGAGUGUGGGAGUGUGUCUGCACAUGUUACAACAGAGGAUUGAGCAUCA` is reported as 0.416 ratio.
With `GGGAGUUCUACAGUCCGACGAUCUCAUGUAGUUUUGUAUUUUCAAGCAAAAAUCUUACUGUACUUGAAUGUCUUUUUUUUGGUUAGCACACCUUAGACUUGCUGUAAUUGUACUCAUGUCCCAGUAUCUAAAGUUCUUUCUGUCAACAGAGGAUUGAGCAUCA` the bound/input enrichment was 0.679 ratio.
`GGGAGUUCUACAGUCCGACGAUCAGCUUCUGGUGACAUUUGGCCCGGCCUUUCAGCAUAUGACAACAGUCCAAGGUCACCCCAUAGUCCUUCUGUUGCUUCCCCACCUAGUCAGAGUUCGUCUUGCUCUGAUGCGCCCUUGCUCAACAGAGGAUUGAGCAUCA` gave a bound/input enrichment of 0.539 ratio.
`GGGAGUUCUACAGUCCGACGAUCUUUUAUUGUACUUGGAAAAAUCUUAGUUUUAAACUAGUCACGGUGAUAACUGGUCUGUGCUAGUGGAAUCAUUUACUCUUACCUUUUAAAUUAUCUUCUCUGUCUGAUACCUGAAACCGUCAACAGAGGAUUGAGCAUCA` has a bound/input enrichment of 1.01 ratio.
The bound/input enrichment of `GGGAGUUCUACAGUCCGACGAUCUGCCGGGCUGGCCCCAGUCCCACCUCUGUUUAUUCUGUACUGCAACCUGUAAAUAACAUUUAGCAUUCCUAUUGUAACAAAAUUAAUUUUUAUGAAAUAAAUUAUAUUUCCUAGUCUAAUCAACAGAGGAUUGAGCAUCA` is reported as 1.1 ratio.

Series 2
Target: CCND3, cyclin fold, Cln2 fusion (human)
Technique: yeast growth competition, sequencing
Matrix: yeast
Setting: weak parent motif
Baseline: not given
Direction: higher = stronger binding
Parent: RBL1 docking peptide (human); GSAKRRLFGEDPP; partner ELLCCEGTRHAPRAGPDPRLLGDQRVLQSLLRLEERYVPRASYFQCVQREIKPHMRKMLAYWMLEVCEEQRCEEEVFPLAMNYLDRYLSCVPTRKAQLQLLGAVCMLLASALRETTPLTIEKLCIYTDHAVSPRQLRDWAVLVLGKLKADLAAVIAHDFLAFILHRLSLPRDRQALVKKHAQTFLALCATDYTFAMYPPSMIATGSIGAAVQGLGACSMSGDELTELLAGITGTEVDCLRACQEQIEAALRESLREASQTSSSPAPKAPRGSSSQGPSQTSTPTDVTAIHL
`A3F`: “normalised enrichment score” 0.124.
`R6T`: “normalised enrichment score” 0.122.
`E10W`: “normalised enrichment score” 0.113.
Under “normalised enrichment score”, `R6H` is recorded as 0.132.

Series 3
Target: Fragile X messenger ribonucleoprotein 1, C-terminal low-complexity region (Fmr1, Mus musculus, UniProt P35922)
Technique: RNA Bind-n-Seq
Molecule type: RNA
Matrix: in vitro
Concentration: 200 nM
Setting: whole 134-nt RNA, ends assumed
Added: 150 mM LiCl
Baseline: input library
Direction: higher = stronger binding
Each molecule: 7-deaza-guanosine replaces G
For `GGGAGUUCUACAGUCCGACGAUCUCCUGUGCUACACAUCGUAUGUACCGAAUCGGGGUUUGGGGUUUGGGGUUUUUUUGGGGAAAGUAUUAUGUUACGCCGUUCGGAUCUGCAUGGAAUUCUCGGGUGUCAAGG`, the log2 enrichment was -0.719.
With `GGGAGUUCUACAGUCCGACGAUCUCCUGUGCUACACAUCGUAUGUACCGAAUCGGAAAAAGGGGAAAAAGGGGAAAAAGGGGAAAGUAUUAUGUUACGCCGUUCGGAUCUGCAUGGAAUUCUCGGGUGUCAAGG` the log2 enrichment was -0.438.
The log2 enrichment of `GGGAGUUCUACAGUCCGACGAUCAGUCCUGUGCUACACAUCGUAUGUACCGAAUCGGGGAAAGGGGUUUUUGGGGAGGGGAAAGUAUUAUGUUACGCCGUUCGGAUCUGCACUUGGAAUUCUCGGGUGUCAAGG` is reported as -0.651.
With `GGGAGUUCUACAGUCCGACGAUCUCCUGUGCUACACAUCGUAUGUACCGAAUCGGGAAAAAGGGUUUUUUUGGGUUUUUGGGAAAGUAUUAUGUUACGCCGUUCGGAUCUGCAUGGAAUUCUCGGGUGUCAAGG` the log2 enrichment was -2.4.
`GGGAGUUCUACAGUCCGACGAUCGUCCUGUGCUACACAUCGUAUGUACCGAAUCGGAAAAAGGGGAAAAAGGGGAAAAAGGAAAGUAUUAUGUUACGCCGUUCGGAUCUGCACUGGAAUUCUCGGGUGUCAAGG` has a log2 enrichment of 0.201.
The log2 enrichment of `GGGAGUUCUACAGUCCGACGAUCUGGGAGGUGGAUUUUGUUUAUUUUUUUAGCUCAUUUCCAGGGGUGGGAAUUUUUUUUUAAUAUGUGUCAUGAAUAACGUUGUUUUUGAAAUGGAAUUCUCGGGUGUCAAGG` is reported as 0.344.
With `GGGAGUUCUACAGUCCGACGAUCUUCCAGGCUCAAGCACGGACAUCAGUGAGGACUGGGAGAAAGACUUUGACUUGGACAUGACUGAAGAGGAGGUGCAGAUGGCACUUUCCAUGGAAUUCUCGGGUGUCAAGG` the log2 enrichment was -2.98.
With `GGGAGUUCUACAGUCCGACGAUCGUCCUGUGCUACACAUCGUAUGUACCGAAUCGGGGAAAAAGGGGUGGGGAAAAAGGGGAAAGUAUUAUGUUACGCCGUUCGGAUCUGCACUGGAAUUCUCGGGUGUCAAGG` the log2 enrichment was -0.0509.

Other studies, line by line
With `PhoQ, residues 284 288 289 292 302 303 ASHLAV` the fold induction was 6.96 (PhoP, residues 12 14 15 18 19 VQALL (Escherichia coli, UniProt P23836); Sort-seq, item: YFP reporter; E. coli; PhoQ-PhoP variant library, added: 10 µM Mg2+; baseline: high Mg2+ state, higher = stronger signaling).

For quick reference, copied from above (series 1):
`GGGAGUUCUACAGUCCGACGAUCUUUUAUUGUACUUGGAAAAAUCUUAGUUUUAAACUAGUCACGGUGAUAACUGGUCUGUGCUAGUGGAAUCAUUUACUCUUACCUUUUAAAUUAUCUUCUCUGUCUGAUACCUGAAACCGUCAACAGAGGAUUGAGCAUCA` has a bound/input enrichment of 1.01 ratio.
